Experimental data from different studies.
Compare with care: the assays were run in different laboratories. Values joined by “and” are separate records of one study, mostly repeats; a detail may differ. ± gives the spread as reported.

SMILES | assay | test system | conditions | scale | quantity | value
CC(C)C[C@@H]1NC(=O)[C@@H](Cc2c[nH]c3ccccc23)NC(=O)[C@H](CCCNC(=N)N)NC(=O)[C@@H](CCC(=O)O)NC(=O)[C@H](CCC(N)=O)NC(=O)[C@@H](CCC(=O)O)NC(=O)[C@H](CCCNC(=N)N)NC(=O)[C@@H](Cc2c[nH]c3ccccc23)NC1=O | Luminex, refers to: LIX | LDLr-/- mice, Western diet, liver | dose not given, 4 weeks |  | cytokine level | 290 ± 240 pg/g tissue
Cc1ccc(S(=O)(=O)N2CC2C(=O)N(C)C)cc1 (stereo not shown) |  | mouse, Lewis lung carcinoma | intraperitoneal, 170 mg/kg, 16 doses, day 14 |  | tumour volume | 931 mm3
O=C(O)c1ccc(-c2nc(-c3ccccc3Cl)c3sccn23)cc1 |  | C57BL/6 mice, 5-fluorouracil treated | dose not given, day 17 | baseline: RBC | reticulocytes | 17.4% and 17.1% and 12.2% and 12.4%
CCN(Cc1ccccc1)C(=O)CCc1nc(CN2CCN(C(=O)Cc3ccc(OC)c(OC)c3)CC2)no1 | beam walking test | mouse CCI model | 5 mg/kg, unit not given | lower is better | foot slips | 1.83 ± 0.36
CCCCCCCCCCCC1CC(=O)NC(CC(N)=O)C(=O)NC(Cc2ccc(O)cc2)C(=O)NC(CC(N)=O)C(=O)NC(CCC(N)=O)C(=O)N2CCCC2C(=O)NC(CC(N)=O)C(=O)NC(CO)C(=O)N1 (stereo not shown) | calcein leakage | DOPC/CHOL liposomes | concentration not given, with: 20 wt% PEG-8000 |  | fusion time constant | 12 ± 4 min
COc1ccccc1-c1n[nH]c2nc(N[C@H]3CC[C@H](NS(=O)(=O)CC(C)C)CC3)ncc12 | bead binding, competition bead pull-down, refers to: LINJ.24.2150 | Leishmania donovani extract | 10 µM | baseline: vehicle | relative abundance | 1.13
Cc1ccc(C2=CC(C)(C)Oc3ccc(-c4ccc(-c5ccc(C(=O)O)cc5)[nH]4)cc32)cc1 |  | CD1 mouse, male | 20 mg/kg, 1 day after treatment, dosed for 2 weeks |  | testis weight | 0.0692 g and 0.0925 g and 0.118 g and 0.0776 g and 0.0761 g
[Cu+2].c1cnc2c(c1)c1nccnc1c1cccnc12.c1cnc2c(c1)c1nccnc1c1cccnc12 | DNA cleavage | supercoiled pUC19 DNA | 100 µM, 4 h, 37 °C, no reducing agent, with: DNA 40 µM |  | supercoiled DNA form | 2%
COc1ccccc1-c1n[nH]c2nc(NC3CCN(C(=O)Cc4ccc(F)cc4F)CC3)ncc12 | bead binding, competition bead pull-down, refers to: LINJ.35.4500 | Leishmania donovani axenic amastigote extract | 10 µM | baseline: vehicle | relative abundance | 0.94
CC(C)[C@@H]1NC(=O)[C@@H]2CCCN2C(=O)[C@@H](C(C)C)NC(=O)[C@H]2CCCN2C(=O)[C@H](C(C)C)NC(=O)[C@@H]2CCCN2C(=O)[C@@H](C(C)C)NC(=O)[C@H]2CCCN2C(=O)[C@H](C(C)C)NC(=O)[C@@H]2CCCN2C(=O)[C@@H](C(C)C)NC(=O)[C@H]2CCCN2C1=O |  | sheep lipid bilayer | 10 µM, pH 7.4, 23 °C, with: 0.1 M K+ vs Na chloride |  | bi-ionic potential | -76 mV

Some of these lines once more:
SMILES | assay | test system | conditions | scale | quantity | value
Cc1ccc(C2=CC(C)(C)Oc3ccc(-c4ccc(-c5ccc(C(=O)O)cc5)[nH]4)cc32)cc1 |  | CD1 mouse, male | 20 mg/kg, 1 day after treatment, dosed for 2 weeks |  | testis weight | 0.0692 g and 0.0925 g and 0.118 g and 0.0776 g and 0.0761 g
